Experimental data collected from several papers.
Lines come from different studies, so protocols differ. Numbers after ± are the reported error.
bglA: bglA (Thermotoga maritima, UniProt Q08638)
CNR1: Cannabinoid receptor 1 (CNR1, Homo sapiens, UniProt P21554)
GLAA: Glucoamylase (GLAA, Aspergillus niger, UniProt P69328)
CAPN1: Calpain-1 catalytic subunit (CAPN1, Homo sapiens, UniProt P07384)
Astl: Astacin-like metalloendopeptidase (Astl, Mus musculus, UniProt Q6HA09)
DHFR: Dihydrofolate reductase (DHFR, Homo sapiens, UniProt P00374)
Na(+)/H(+) exchange regulatory cofactor NHE-RF2 PDZ domain 1: Na(+)/H(+) exchange regulatory cofactor NHE-RF2, PDZ domain 1 (Homo sapiens, UniProt Q15599)
BCL2L1: Bcl-2-like protein 1 (BCL2L1, Homo sapiens, UniProt Q07817)
EPHA2: Ephrin type-A receptor 2 (EPHA2, Homo sapiens, UniProt P29317)
DRD2: D(2) dopamine receptor (DRD2, Homo sapiens, UniProt P14416)
XIAP BIR3: E3 ubiquitin-protein ligase XIAP, BIR3 (XIAP, Homo sapiens, UniProt P98170)

`CCCCCCCCN1[C@H](CCC)[C@H](O)[C@@H](O)[C@H](O)[C@H]1CO` gave a Ki of greater than 2000 µM (bglA; competitive inhibitor; together with: p-nitrophenyl glucopyranoside).
`CCOC(=O)[C@](CC)(CCCSCCOCCOCCNC(=O)c1ccc(C(=O)[O-])c(C2=C3C=CC(=[N+](C)C)C=C3[Si](C)(C)c3cc(N(C)C)ccc32)c1)NC(=O)c1ccc(C2CC2)c(Cc2ccc(F)cc2)n1` gave a Ki of 0.114 µM (CNR1; ligand displacement, radioligand; cell membranes).
The Ki of `CCCCNC(=S)N1[C@H](CCC)[C@H](O)[C@@H](O)[C@H](O)[C@H]1CO` is reported as greater than 2000 µM (GLAA; enzyme activity, competitive inhibitor; optimal pH, together with: p-nitrophenyl glycopyranoside).
The Ki of `CCC(NC(=O)C(CC(C)C)NC(=O)NCc1ccc(C#N)cc1)C(=O)C(=O)NCc1cc(OC)cc(OC)c1` (centres unmarked) is reported as 0.252 µM (CAPN1; enzyme activity, inhibitor, fluorescence).
For `O=C(CN(Cc1ccccc1)Cc1cccc(C(=O)O)c1)NO`, the Ki was 11.1 ± 0.89 µM (Astl; enzyme activity, inhibitor, fluorogenic; pH 7.4, 37 °C, apparent Ki, Morrison equation, together with: 25 µM substrate).
`CC1(C)NC(N)=Nc2nc3cc(Cl)c(Cl)cc3n21` gave a Ki of 0.663 µM (DHFR; inhibitor).
`CC[C@H](C)[C@H](NC(=O)[C@@H](NC(=O)[C@H](CO)NC(=O)[C@@H](NC(=O)[C@H](CCC(N)=O)NC(=O)[C@H](CCSC)NC(=O)[C@@H](N)CS)[C@@H](C)O)[C@@H](C)CC)C(=O)O` has a Ki of 245 ± 26 µM (Na(+)/H(+) exchange regulatory cofactor NHE-RF2 PDZ domain 1; binding to PDZ1 domain, inhibitor, fluorescence polarization).
`NCCCCCO[C@H]1O[C@H](COS(=O)(=O)O)[C@@H](O[C@@H]2O[C@@H](C(=O)O)[C@@H](O[C@H]3O[C@H](COS(=O)(=O)O)[C@@H](O[C@@H]4O[C@@H](C(=O)O)[C@@H](O[C@H]5O[C@H](COS(=O)(=O)O)[C@@H](O[C@@H]6O[C@@H](C(=O)O)[C@@H](O)[C@H](O)[C@H]6OS(=O)(=O)O)[C@H](O)[C@H]5NS(=O)(=O)O)[C@H](O)[C@H]4OS(=O)(=O)O)[C@H](O)[C@H]3NS(=O)(=O)O)[C@H](O)[C@H]2OS(=O)(=O)O)[C@H](O)[C@H]1NS(=O)(=O)O` gave a Ki of 40.9 µM (Heparanase (HPSE, Homo sapiens, UniProt Q9Y251); enzyme activity, inhibitor, absorbance).
For `NCCN1C(=O)c2cccc3cccc(c23)C1=O`, the Ki was greater than 100 µM (Chitooligosaccharidolytic beta-N-acetylglucosaminidase (Ostrinia furnacalis, UniProt Q06GJ0); inhibitor; pH 6.0, 25 °C, together with: pNP-β-GlcNAc).
For `O=C(CN(Cc1cccc(C(=O)O)c1)Cc1ccc2c(c1)OCO2)NO`, the Ki was 2.39 ± 0.06 µM (Astl; enzyme activity, inhibitor, fluorogenic; pH 7.4, 37 °C, apparent Ki, Morrison equation, together with: 25 µM substrate).
With `CC[C@H](C)[C@H](NC(=O)[C@H](CCC(=O)O)NC(=O)[C@@H]1CCCN1C(=O)[C@H](CCCNC(=N)N)NC(C)=O)C(=O)N[C@@H](Cc1c[nH]c2ccccc12)C(=O)N[C@@H](Cc1ccc(O)cc1)C(=O)N[C@@H](C)C(=O)N[C@@H](CCC(N)=O)C(=O)NCC(=O)N[C@@H](CC(C)C)C(=O)N[C@@H](CCCCN)C(=O)N[C@@H](CCCNC(=N)N)C(=O)N[C@@H](Cc1ccccc1)C(=O)NCC(=O)N[C@@H](CC(=O)O)C(=O)N[C@@H](CCC(=O)O)C(=O)N[C@@H](Cc1ccccc1)C(=O)N[C@@H](CC(N)=O)C(=O)N[C@@H](C)C(=O)N[C@@H](Cc1ccc(O)cc1)C(=O)N[C@@H](CCCCN)C(=O)N[C@@H](C)C(=O)N[C@@H](CCCNC(=N)N)C(N)=O` the Ki was no more than 0.0001 µM (BCL2L1; ligand displacement, FP; pH 7.8).
With `CCCCCCCC[C@H]1N[C@H](CO)[C@@H](O)[C@H](O)[C@H]1O` the Ki was 12.3 µM (GLAA; enzyme activity, inhibitor).
`Cc1cc(N2CCCCC2)c(NC(=O)c2ccc(-c3cc(O)ccc3C)c(C)c2)cc1F` has a Ki of greater than 0.25 µM (EPHA2).
With `CC(=O)c1cccc(NC(=O)c2nc(-c3ccccc3)n(-c3cccc(C)c3)n2)c1` the Ki was 4.62 µM (CNR1; cell-free assay).
`CCn1c2ccccc2c2cc(CNCCCn3ccnn3)ccc21` has a Ki of greater than 10 µM (DRD2; cell-free assay).
`CCC(NC(=O)C(CC(C)C)NC(=O)CCc1ccccc1)C(=O)C(=O)NCc1cc(F)cc(OC)c1` (centres unmarked) has a Ki of 0.47 µM (CAPN1; enzyme activity, inhibitor, fluorescence).
For `C/C=C/C[C@@H](C)[C@@H](O)[C@H]1C(=O)N[C@@H](CC)C(=O)N(C)C(Cc2ccc(C(=O)NCCOCCNC(=O)CC[P+](c3ccccc3)(c3ccccc3)c3ccccc3)cc2)C(=O)N(C)[C@@H](CC(C)C)C(=O)N[C@@H](C(C)C)C(=O)N(C)[C@@H](CC(C)C)C(=O)N[C@@H](C)C(=O)N[C@H](C)C(=O)N(C)[C@@H](CC(C)C)C(=O)N(C)[C@@H](CC(C)C)C(=O)N(C)[C@@H](C(C)C)C(=O)N1C` (some centres unmarked), the Ki was 0.005 µM (Peptidyl-prolyl cis-trans isomerase F, mitochondrial (Ppif, Rattus norvegicus, UniProt P29117); PPIase activity, inhibitor; pH 7.5, 15 °C).
With `CC(Oc1nc(-c2ccccc2)nc2ccccc12)C(=O)N(C)c1ccccc1` (centres unmarked) the Ki was 0.00013 ± 8e-05 µM (Tspo (Rattus norvegicus, UniProt P16257); binding, radioligand displacement; rat brain homogenate).
For `CCC(NC(=O)C(CC(C)C)NC(=O)NCc1ccccc1)C(=O)C(=O)NCc1cc(OC)cc(OC)c1` (centres unmarked), the Ki was 0.072 µM (Calpain-2 catalytic subunit (Homo sapiens, UniProt P17655); enzyme activity, inhibitor, fluorescence).
`CCCCN1[C@H](CCC)[C@H](O)[C@@H](O)[C@H](O)[C@H]1CO` has a Ki of greater than 2000 µM (GLAA; enzyme activity, competitive inhibitor; optimal pH, together with: p-nitrophenyl glycopyranoside).
For `[N-]=[N+]=N[C@H]1C[C@H](n2cnc3c(=O)[nH]c(N)nc32)O[C@@H]1COP(=O)(O)OP(=O)(O)OP(=O)(O)O`, the Ki was 1.5 µM (TERT (Homo sapiens, UniProt O14746); enzyme activity, inhibitor).
The Ki of `COc1cccc(C(=O)CC(N)C(=O)O)c1` (centres unmarked) is reported as 175 µM (Kynureninase (Rattus norvegicus, UniProt P70712); inhibitor).
`CNC(=O)C1CCN(c2ccccc2NC(=O)c2ccc(-c3ccnc4[nH]ccc34)c(C)c2)CC1` gave a Ki of greater than 0.25 µM (EPHA2).
For `OC[C@H]1c2[nH]cnc2[C@H](O)[C@@H](O)[C@@H]1O`, the Ki was 58 µM (bglA; enzyme activity, inhibitor; pH 6.8).
`CN(C)CCN(Cc1ccncc1)Cc1c(Cl)cccc1Cl` gave a Ki of 0.668 µM (SLC6A4 (Homo sapiens, UniProt P31645); ligand displacement, radioligand; cell membranes).
`CN(C)CC#Cc1ccc(OCCCc2sc(N3CCc4cccc(C(=O)Nc5nc6ccccc6s5)c4C3)nc2C(=O)O)c(F)c1` gave a Ki of less than 1e-05 µM (BCL2L1; cell-free assay, TR-FRET).
For `CC[C@H](C)[C@H](NC(=O)[C@@H](NC(=O)[C@H](CO)NC(=O)[C@@H](NC(=O)[C@@H]1CCCN1C(=O)[C@H](Cc1c[nH]c2ccccc12)NC(=O)[C@@H](N)CS)[C@@H](C)O)[C@@H](C)CC)C(=O)O`, the Ki was greater than 5000 µM (Na(+)/H(+) exchange regulatory cofactor NHE-RF2 PDZ domain 1; binding to PDZ1 domain, inhibitor, fluorescence polarization).
`Clc1ccc(-n2cc(CNC[C@@H]3CCCOC3)nn2)c(Cl)c1` has a Ki of greater than 10 µM (DRD2; ligand displacement, radioligand).
For `CCOC(=O)C(NC(=O)c1oc(=O)c2ccccc2c1-c1ccc(C)cc1)C(=O)OCC`, the Ki was roughly 7 µM (CFTR (Homo sapiens, UniProt P13569); concentration not given).
The Ki of `CCC(NC(=O)C(CC(C)C)NC(=O)CCc1ccncc1)C(=O)C(=O)NCc1cc(OC)cc(OC)c1` (centres unmarked) is reported as 0.061 µM (CAPN1; enzyme activity, inhibitor, fluorescence).
`CCC[C@@H]1[C@H](O)[C@@H](O)[C@H](O)[C@@H](CO)N1C(=S)NCc1ccccc1` has a Ki of 154 µM (GLAA; enzyme activity, inhibitor).
For `O=C(O)COc1cccc(NC(=O)c2cc(-c3cccc(F)c3)ccc2F)c1`, the Ki was 1.26 µM (PTGER4 (Homo sapiens, UniProt P35408); ligand displacement, radioligand; cell membranes).
For `CN[C@@H](C)C(=O)N[C@H]1CN(C(=O)Cc2ccccc2)CC[C@H]2CC[C@@H](C(=O)NCc3ccc(C(C)C)cc3)N2C1=O`, the Ki was 38 µM (XIAP BIR3; ligand displacement, FP).
With `Cc1cc2nc3n(c2cc1C)C(C)(C)NC(N)=N3` the Ki was 1.05 µM (DHFR; inhibitor).
With `CCc1nc2ccc(N(Cc3ccccc3)C(=O)c3cccs3)cc2c(=O)n1Cc1ccc(-c2ccccc2-c2nn[nH]n2)cc1` the Ki was 0.18 µM (AGTR1 (Homo sapiens, UniProt P30556); ligand displacement, radioligand).
`CN[C@@H](C)C(=O)N[C@H]1CN(C(=O)Cc2ccccc2)CC[C@H]2CC[C@@H](C(=O)NCc3ccc([N+](=O)[O-])cc3)N2C1=O` has a Ki of 11.6 µM (XIAP BIR3; ligand displacement, FP).
The Ki of `CNC(=O)C1CCN(c2cc(C)c(F)cc2NC(=O)c2ccc(-c3cc(O)ccc3C)c(C)c2)CC1` is reported as 0.0047 µM (EPHA8 (Homo sapiens, UniProt P29322); cell-free assay, TR-FRET).
`CCN(CC)c1ccc(CNC(=O)[C@@H]2CC[C@@H]3CCN(C(=O)Cc4ccccc4)C[C@H](NC(=O)[C@H](C)NC)C(=O)N32)cc1` has a Ki of 42.5 µM (XIAP BIR3; ligand displacement, FP).
`CNC(=O)C1CCN(c2ccccc2NC(=O)c2ccc(-c3ccccc3C)c(C)c2)CC1` gave a Ki of 0.096 µM (EPHA2; enzyme activity, inhibitor).
`CCCCCCCCNC(=S)N1[C@H](CCC)[C@H](O)[C@@H](O)[C@H](O)[C@H]1CO` gave a Ki of greater than 2000 µM (bglA; competitive inhibitor; together with: p-nitrophenyl glucopyranoside).
The Ki of `CC(C)C[C@@H]1NC(=O)[C@H](C)NC(=O)[C@H](CC2CCN(C(=N)N)CC2)NC(=O)[C@H](CO)NC(=O)[C@H](CCCNC(=N)N)NC(=O)[C@H](CCCCN)NC(=O)[C@@H]2CCCN2C(=O)[C@@H](N)CSSC[C@@H](C(=O)O)NC(=O)[C@H](Cc2ccccc2)NC1=O` is reported as 12.5 µM (Plasminogen (PLG, Homo sapiens, UniProt P00747); enzyme activity, inhibitor, absorbance; pH 7.4).
